Results gathered from unrelated publications.
A part holds a random share of what one study measured. Positions count from the first letter of the parent shown.

Series 1 — target: CCNB2, cyclin fold, Cln2 fusion (human); technique: yeast growth competition, sequencing; sample: yeast; notes: weak parent motif; reference: not given; reading: higher = stronger binding
Parent: ANKRD17 docking peptide (human); PSVRRQLFVTVVK; partner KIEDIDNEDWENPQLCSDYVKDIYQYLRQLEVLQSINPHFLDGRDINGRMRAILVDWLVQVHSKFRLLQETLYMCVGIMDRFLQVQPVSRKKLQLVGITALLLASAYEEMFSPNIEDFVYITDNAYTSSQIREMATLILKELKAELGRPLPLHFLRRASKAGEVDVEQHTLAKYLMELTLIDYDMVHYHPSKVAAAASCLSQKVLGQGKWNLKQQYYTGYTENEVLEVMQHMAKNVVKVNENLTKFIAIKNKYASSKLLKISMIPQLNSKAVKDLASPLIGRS
`Q6A`: “normalised enrichment score” 0.128.
`R5A L7A` — result for “normalised enrichment score”: 0.377.
For `R4A`, “normalised enrichment score” read 0.609.
For `F8L`, “normalised enrichment score” read 0.471.
`F8A`: “normalised enrichment score” 0.732.
Under “normalised enrichment score”, `V3A` is recorded as 0.92.
`T10A`: “normalised enrichment score” 1.02.
Under “normalised enrichment score”, `R5K F8L` is recorded as 1.32.
Under “normalised enrichment score”, `P1A` is recorded as 0.224.
For `K13A`, “normalised enrichment score” read 0.377.

Series 2 — technique: protein binding microarray; molecule type: double-stranded DNA, one strand shown; sample: in vitro; tested at: not given; reference: not given; reading: higher = stronger binding
Target: Histone acetyltransferase KAT6A, winged helix 1, GST fusion (KAT6A, Homo sapiens, UniProt Q92794, residues 1-85)
Notes: 8-mer, flanks averaged, mean of 2 arrays, mostly near background
Residues (chain): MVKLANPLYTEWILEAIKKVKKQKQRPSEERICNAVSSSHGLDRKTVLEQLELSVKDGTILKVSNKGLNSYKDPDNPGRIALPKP
`ACCCGGTG` gave an E-score of 0.301.
For `ATTCGTAG`, the E-score was -0.075.
The E-score of `ATGGCGCG` is reported as 0.287.
The E-score of `GATGAGAA` is reported as -0.196.
`CGATGTTC` has an E-score of 0.0136.
`CACGGAAC` has an E-score of 0.293.
`AACGCTGC` has an E-score of 0.022.
`GCTATCGA` gave an E-score of 0.0793.
`CCAGCAGA` gave an E-score of -0.179.
The E-score of `AGAATCCA` is reported as -0.2.
For `GAGAATTA`, the E-score was -0.177.
For `CAATGTAC`, the E-score was -0.0505.
With `AGCACGAC` the E-score was -0.041.
The E-score of `AGTGGCCA` is reported as -0.251.
The E-score of `GGTTCAAC` is reported as 0.124.
`CCAGGAGA` has an E-score of -0.285.
For `CTTGCTGC`, the E-score was -0.0678.
`GACCGCAC` gave an E-score of 0.192.
The E-score of `CAAGATTC` is reported as -0.169.
With `ATGTCAAT` the E-score was -0.0167.
For `CTCGATGC`, the E-score was -0.0488.
`CATACCTA` gave an E-score of -0.0753.
`CCGCTTTA` has an E-score of 0.264.

Series 3 — technique: DHFR PCA, deep sequencing; sample: yeast; together with: (+)-ABA 17 µM; reference: wild-type fitted maximum; reading: higher = stronger binding
Target: ABI1, truncated, D143A, DHFR fusion (Arabidopsis thaliana)
Notes: methotrexate growth selection, single substitutions
Parent: PYL1, truncated, DHFR fusion (Arabidopsis thaliana); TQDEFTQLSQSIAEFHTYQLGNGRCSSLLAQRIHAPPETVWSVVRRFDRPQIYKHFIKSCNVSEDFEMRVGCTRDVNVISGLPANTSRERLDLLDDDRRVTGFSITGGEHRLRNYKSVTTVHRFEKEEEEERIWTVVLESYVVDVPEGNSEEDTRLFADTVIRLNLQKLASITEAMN
`D144V`: “relative binding score” 7.69%.
For `N77G`, “relative binding score” read 76.6%.
Under “relative binding score”, `K58I` is recorded as 24.6%.
`N165V`: “relative binding score” -7.21%.
`A13Y`: “relative binding score” 59.9%.
Under “relative binding score”, `P50Q` is recorded as -12.1%.
`P50I` — result for “relative binding score”: -2.82%.
For `L20H`, “relative binding score” read 90.3%.
Under “relative binding score”, `N114L` is recorded as -6.16%.
Under “relative binding score”, `T120W` is recorded as -2.29%.
Under “relative binding score”, `D95E` is recorded as 57%.
For `I12V`, “relative binding score” read 68.1%.
Under “relative binding score”, `N77K` is recorded as 93.5%.
Under “relative binding score”, `D65H` is recorded as 82.1%.
`P37S` — result for “relative binding score”: 49.3%.
`V44E`: “relative binding score” -3.76%.
`R74L`: “relative binding score” -11.1%.

Series 4 — technique: universal PBM; molecule type: double-stranded DNA, one strand shown; sample: in vitro; tested at: 600 nM; reading: higher = stronger binding
Target: Sal-like protein 4, full length isoform A (SALL4, Homo sapiens, UniProt Q9UJQ4, residues 1-1053)
Chain of UniProt Q9UJQ4 (whole entry, looked up): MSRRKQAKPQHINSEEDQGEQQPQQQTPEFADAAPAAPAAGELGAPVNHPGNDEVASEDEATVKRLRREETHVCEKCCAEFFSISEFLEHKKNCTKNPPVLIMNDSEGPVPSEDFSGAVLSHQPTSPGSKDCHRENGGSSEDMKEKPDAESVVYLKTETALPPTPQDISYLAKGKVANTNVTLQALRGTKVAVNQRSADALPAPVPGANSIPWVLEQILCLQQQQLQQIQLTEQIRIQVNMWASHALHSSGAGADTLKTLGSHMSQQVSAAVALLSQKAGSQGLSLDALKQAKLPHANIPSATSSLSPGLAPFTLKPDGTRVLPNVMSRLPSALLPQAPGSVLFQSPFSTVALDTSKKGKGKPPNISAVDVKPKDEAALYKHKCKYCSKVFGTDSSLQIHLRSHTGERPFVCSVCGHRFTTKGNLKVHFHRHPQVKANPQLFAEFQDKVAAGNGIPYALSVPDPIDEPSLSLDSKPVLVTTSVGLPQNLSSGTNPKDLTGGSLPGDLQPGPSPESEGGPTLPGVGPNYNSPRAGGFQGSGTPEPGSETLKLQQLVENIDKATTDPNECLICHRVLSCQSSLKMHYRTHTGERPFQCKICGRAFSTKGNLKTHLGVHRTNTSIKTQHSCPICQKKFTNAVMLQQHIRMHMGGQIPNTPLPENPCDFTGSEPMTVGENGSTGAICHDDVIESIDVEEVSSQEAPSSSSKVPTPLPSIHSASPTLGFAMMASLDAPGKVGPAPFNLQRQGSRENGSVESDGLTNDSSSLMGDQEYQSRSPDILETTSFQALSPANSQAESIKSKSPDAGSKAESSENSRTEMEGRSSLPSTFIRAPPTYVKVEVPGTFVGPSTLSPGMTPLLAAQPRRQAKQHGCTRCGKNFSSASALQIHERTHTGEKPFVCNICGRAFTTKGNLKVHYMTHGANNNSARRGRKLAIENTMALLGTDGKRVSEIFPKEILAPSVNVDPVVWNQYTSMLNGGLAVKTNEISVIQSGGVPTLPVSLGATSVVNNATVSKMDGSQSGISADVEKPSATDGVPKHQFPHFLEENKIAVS
Notes: 8-mer, flanks averaged, mean of replicates
For `CCAGATTA`, the E-score was 0.221.
`CAAGCACA` gave an E-score of -0.116.
With `ACGAAGAA` the E-score was 0.246.
The E-score of `GAGATGCA` is reported as -0.0172.
With `CGGAAAGA` the E-score was -0.118.
With `CATCCTTC` the E-score was 0.0761.
The E-score of `AGGGTGAA` is reported as -0.0373.
For `GTCAGTTA`, the E-score was 0.0729.
`CCAATGTA` has an E-score of 0.0117.
The E-score of `AATACTGT` is reported as 0.244.
With `ACTGCTGC` the E-score was -0.177.
With `ATTGCAGG` the E-score was 0.0988.
For `ATGTCCAC`, the E-score was -0.00408.
For `GATTACAA`, the E-score was 0.229.
With `ATCTGCTA` the E-score was 0.126.
With `CCCGGTCC` the E-score was -0.477.

Series 5 — technique: RNA Bind-n-Seq; molecule type: RNA; sample: in vitro; tested at: 200 nM; notes: whole 134-nt RNA, ends assumed; together with: 150 mM LiCl; reference: input library; reading: higher = stronger binding; each molecule: 7-deaza-guanosine replaces G
Target: Ras GTPase-activating protein-binding protein 1, full length (G3BP1, Homo sapiens, UniProt Q13283)
Chain of UniProt Q13283 (whole entry, looked up): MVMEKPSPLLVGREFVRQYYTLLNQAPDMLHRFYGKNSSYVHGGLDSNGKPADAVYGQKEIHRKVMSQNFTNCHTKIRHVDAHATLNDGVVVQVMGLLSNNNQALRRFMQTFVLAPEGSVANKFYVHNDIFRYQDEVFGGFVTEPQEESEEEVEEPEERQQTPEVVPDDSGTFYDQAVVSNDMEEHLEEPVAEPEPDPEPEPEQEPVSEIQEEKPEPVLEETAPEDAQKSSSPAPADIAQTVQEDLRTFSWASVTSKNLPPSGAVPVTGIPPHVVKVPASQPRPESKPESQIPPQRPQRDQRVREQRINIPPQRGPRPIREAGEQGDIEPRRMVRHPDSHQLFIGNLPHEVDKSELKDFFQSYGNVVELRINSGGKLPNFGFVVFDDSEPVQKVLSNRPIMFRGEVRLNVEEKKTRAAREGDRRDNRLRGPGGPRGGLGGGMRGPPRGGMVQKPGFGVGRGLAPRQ
For `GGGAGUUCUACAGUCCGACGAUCGUCCUGUGCUACACAUCGUAUGUACCGAAUCGGGUUUUUGGGUUUGGGUUUUUUUGGGAAAGUAUUAUGUUACGCCGUUCGGAUCUGCACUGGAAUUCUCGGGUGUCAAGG`, the log2 enrichment was -1.19.
`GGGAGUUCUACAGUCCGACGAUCCAAGUCCUGUGCUACACAUCGUAUGUACCGAAUCGGGGUUUGGGGUUUGGUUUGGGAAAGUAUUAUGUUACGCCGUUCGGAUCUGCACUUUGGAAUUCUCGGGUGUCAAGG` has a log2 enrichment of -0.871.
The log2 enrichment of `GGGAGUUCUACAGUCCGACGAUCUUUCCAGCAGUACCAGCUCCAGCCAGGAUCACCCUCUCUACUCUGGGCACCCAUCCCUUCCACUAAGUGGUGCUAUUGCUGCUUUUGCCUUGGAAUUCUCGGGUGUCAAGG` is reported as 1.1.
`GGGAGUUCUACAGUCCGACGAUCUAACUUUAGAGGAGGAUCUGAUGGAUAUGGCAGUGGACGUGGAUUUGGGGAUGGCUAUAAUGGGUAUGGAGGAGGCCCUGGAGGUGGCAAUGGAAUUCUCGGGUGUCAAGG` gave a log2 enrichment of -0.00853.
`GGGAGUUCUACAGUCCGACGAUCGCAGGAAGUAAAAACAAAUGGAAAUGCUUAGGAUAGUGGCAGGGGUGGGGGUUGCUAAGGAAAGGGUGGGAUGGGAGUGGGUAAAGAGUUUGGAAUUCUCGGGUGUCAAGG` gave a log2 enrichment of -0.0604.
`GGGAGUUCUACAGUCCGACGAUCCUCAAGUCCUGUGCUACACAUCGUAUGUACCGAAUCGGGAGGGGAGGGGAGGGGAAAGUAUUAUGUUACGCCGUUCGGAUCUGCACUUCCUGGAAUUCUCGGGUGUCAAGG` has a log2 enrichment of 0.146.
`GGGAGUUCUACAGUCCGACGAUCCAAGUCCUGUGCUACACAUCGUAUGUACCGAAUCGGGGUUUGGUUUGGGUUUGGGGAAAGUAUUAUGUUACGCCGUUCGGAUCUGCACUUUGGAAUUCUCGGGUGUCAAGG` gave a log2 enrichment of -0.842.
`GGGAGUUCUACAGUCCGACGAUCUGGCCCUGGUGGCAUGCGGGGAGGAAGAGGUGGCCUCAUGGAUCGUGGUGGUCCCGGUGGAAUGGUCAGAGGUGGCCGUGGUGGAGACAGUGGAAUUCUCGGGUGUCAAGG` gave a log2 enrichment of 0.597.
For `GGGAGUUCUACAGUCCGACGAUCGCAGGAAGUAAAAACAAAUGGAAAUGCUUCAGAUAGUGGCAGGGGUGGGGGUUGCUAAGGAAAGGGUGGGAUGGGAGUGGGUAAAGAGUUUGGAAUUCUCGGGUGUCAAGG`, the log2 enrichment was 0.0303.
`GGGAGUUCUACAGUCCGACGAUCAAGUCCUGUGCUACACAUCGUAUGUACCGAAUCAAACCCAAAUUUUUAAAUUUAAAAAAGUAUUAUGUUACGCCGUUCGGAUCUGCACUUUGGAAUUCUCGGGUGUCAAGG` gave a log2 enrichment of -0.616.
With `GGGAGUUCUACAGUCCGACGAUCAGUCCUGUGCUACACAUCGUAUGUACCGAAUCGGGGCCCCGGGGCCCCGGGCCCCGGAAAGUAUUAUGUUACGCCGUUCGGAUCUGCACUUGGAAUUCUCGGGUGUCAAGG` the log2 enrichment was 0.727.

Excerpt of the above (series 4):
The E-score of `GAGATGCA` is reported as -0.0172.
With `CGGAAAGA` the E-score was -0.118.
With `CATCCTTC` the E-score was 0.0761.
The E-score of `AGGGTGAA` is reported as -0.0373.
For `GTCAGTTA`, the E-score was 0.0729.
`CCAATGTA` has an E-score of 0.0117.
The E-score of `AATACTGT` is reported as 0.244.
With `ACTGCTGC` the E-score was -0.177.
With `ATTGCAGG` the E-score was 0.0988.
For `ATGTCCAC`, the E-score was -0.00408.
